{"data": "Values quoted from earlier work, collected from citations in different studies", "organism": "Escherichia coli", "note": "Protocols differ between the studies behind these lines. Several values in a cell are separate wells, animals, samples, runs or records."}
{"SMILES": "COc1ccc(-c2cc(-c3ccc(C)cc3)nc(N)c2C#N)cc1", "concentration": "concentration not given", "endpoint": "inhibition zone diameter", "result": "22 mm"}
{"SMILES": "Cc1[nH]c(C(=O)Nc2ccc(C(=O)NCC(=O)O)cc2OC(C)C)c(Cl)c1Cl", "strain": "ATCC 25922", "endpoint": "MIC", "result": "inactive"}
{"SMILES": "N=C(N)NCCC[C@H](NC(=O)[C@H](Cc1c[nH]c2ccccc12)NC(=O)[C@H](CCC(N)=O)NC(=O)[C@H](Cc1c[nH]c2ccccc12)NC(=O)[C@H](CCCNC(=N)N)NC(=O)[C@@H](N)CCCNC(=N)N)C(=O)NCCCC[C@H](NC(=O)[C@H](CCCNC(=N)N)NC(=O)[C@H](Cc1c[nH]c2ccccc12)NC(=O)[C@H](CCC(N)=O)NC(=O)[C@H](Cc1c[nH]c2ccccc12)NC(=O)[C@H](CCCNC(=N)N)NC(=O)[C@@H](N)CCCNC(=N)N)C(=O)NCCCCCC(N)=O", "strain": "ATCC 11775", "endpoint": "MBC", "result": "22 µM"}
{"SMILES": "Cc1cc(C)n(N)c(=O)c1C#N", "concentration": "concentration not given", "endpoint": "inhibition zone diameter", "result": "22.8 mm and 22 mm"}
{"SMILES": "Cc1cc(C#N)nc(N2CCN(S(=O)(=O)c3ccc(NC(=O)c4cc(CNCCCN)ccc4N(C)S(C)(=O)=O)cc3)CC2)n1", "strain": "25922", "endpoint": "MIC", "result": "2 µg/mL"}
{"SMILES": "CSCC[C@H](NC(=O)[C@H](CCCNC(=N)N)NC(=O)[C@H](Cc1c[nH]c2ccccc12)NC(=O)[C@H](CCC(N)=O)NC(=O)[C@H](Cc1c[nH]c2ccccc12)NC(=O)[C@H](CCCNC(=N)N)NC(=O)[C@H](CCCNC(=N)N)NC(=O)[C@H](C)NC(=O)[C@H](CCCCN)NC(=O)[C@@H](N)Cc1ccccc1)C(=O)N[C@@H](CCCCN)C(=O)N[C@@H](CCCCN)C(=O)N[C@@H](CC(C)C)C(=O)NCC(=O)N[C@@H](C)C(=O)NCCCC[C@H](NC(=O)[C@H](C)NC(=O)CNC(=O)[C@H](CC(C)C)NC(=O)[C@H](CCCCN)NC(=O)[C@H](CCCCN)NC(=O)[C@H](CCSC)NC(=O)[C@H](CCCNC(=N)N)NC(=O)[C@H](Cc1c[nH]c2ccccc12)NC(=O)[C@H](CCC(N)=O)NC(=O)[C@H](Cc1c[nH]c2ccccc12)NC(=O)[C@H](CCCNC(=N)N)NC(=O)[C@H](CCCNC(=N)N)NC(=O)[C@H](C)NC(=O)[C@H](CCCCN)NC(=O)[C@@H](N)Cc1ccccc1)C(=O)NCCCCCC(N)=O", "strain": "ATCC 11775", "endpoint": "MBC", "result": "> 48 µM"}
{"SMILES": "N=C(N)c1ccc(-c2ccc(-c3ccco3)o2)cc1", "endpoint": "MIC", "result": "16 µM"}
{"SMILES": "N=C(N)NCCC[C@H](NC(=O)[C@H](Cc1c[nH]c2ccccc12)NC(=O)[C@H](CCC(N)=O)NC(=O)[C@H](Cc1c[nH]c2ccccc12)NC(=O)[C@H](CCCNC(=N)N)NC(=O)[C@@H](N)CCCNC(=N)N)C(=O)NCCCC[C@H](NC(=O)[C@H](CCCNC(=N)N)NC(=O)[C@H](Cc1c[nH]c2ccccc12)NC(=O)[C@H](CCC(N)=O)NC(=O)[C@H](Cc1c[nH]c2ccccc12)NC(=O)[C@H](CCCNC(=N)N)NC(=O)[C@@H](N)CCCNC(=N)N)C(=O)NCCCCCC(=O)N[C@@H](CSSC[C@H](NC(=O)CCCCCNC(=O)[C@H](CCCCNC(=O)[C@H](CCCNC(=N)N)NC(=O)[C@H](Cc1c[nH]c2ccccc12)NC(=O)[C@H](CCC(N)=O)NC(=O)[C@H](Cc1c[nH]c2ccccc12)NC(=O)[C@H](CCCNC(=N)N)NC(=O)[C@@H](N)CCCNC(=N)N)NC(=O)[C@H](CCCNC(=N)N)NC(=O)[C@H](Cc1c[nH]c2ccccc12)NC(=O)[C@H](CCC(N)=O)NC(=O)[C@H](Cc1c[nH]c2ccccc12)NC(=O)[C@H](CCCNC(=N)N)NC(=O)[C@@H](N)CCCNC(=N)N)C(N)=O)C(N)=O", "technique": "broth microdilution", "strain": "ATCC 11775", "endpoint": "MIC", "result": "22 µM"}
{"SMILES": "CCOc1ccc(NC(=S)N(CCO)Cc2cc3cc(C)cc(C)c3[nH]c2=O)cc1", "read-out": "cell growth", "endpoint": "EC50", "result": "17 nM"}
